Measured values pooled from the literature.
Lines come from different studies, so protocols differ.

For `OC[C@H]1O[C@@H](c2ccc(Cl)c(Cc3ccc(O[C@H]4CCOC4)cc3)c2)[C@H](O)[C@@H](O)[C@@H]1O`, the CL/F was 10.6 L/h (human reference patient; population PK typical value).
With `Cc1cccc(C)c1OCC(=O)N[C@@H](Cc1ccccc1)[C@@H](O)C[C@H](Cc1ccccc1)NC(=O)[C@H](C(C)C)N1CCCNC1=O` the CL/F was 0.983 mL/min/kg (human, HIV+/HCV+, plasma; total drug, steady state, median, together with: lopinavir/ritonavir twice daily).
`COC(=O)N[C@H](C(=O)N[C@@H](Cc1ccccc1)[C@@H](O)CN(Cc1ccc(-c2ccccn2)cc1)NC(=O)[C@@H](NC(=O)OC)C(C)(C)C)C(C)(C)C` has a CL/F of 7.7 L/h (healthy and HIV-infected humans; oral, 300 mg once daily, fed, together with: ritonavir 100 mg).
The CL/F of `CC(C)NC[C@@H](C(=O)N1CCN(c2ncnc3c2[C@H](C)C[C@H]3O)CC1)c1ccc(Cl)cc1` is reported as 124 L/h (human, hepatic impairment Moderate (Child-Pugh), plasma; oral, 100 mg single, geometric mean).
The CL/F of `C[C@@H](c1nc(-c2ccc(C#N)cc2)cs1)[C@](O)(Cn1cncn1)c1cc(F)ccc1F` is reported as 0.5 L/h (human, plasma; oral, 200 mg single dose, together with: ketoconazole 200 mg BID).
`CC[C@H](C)[C@H](NC(=O)[C@H](CC(C)C)NC(=O)[C@H](Cc1c[nH]c2ccccc12)NC(=O)[C@H](C)NC(=O)[C@@H](NC(=O)[C@H](Cc1ccccc1)NC(=O)[C@H](CC(=O)O)NC(=O)[C@H](CCCNC(=N)N)NC(=O)[C@H](C)NC(=O)[C@H](C)NC(=O)[C@H](CC(C)C)NC(=O)[C@H](C)NC(=O)[C@H](CC(=O)O)NC(=O)[C@H](CC(C)C)NC(=O)[C@@H](NC(=O)[C@@H](NC(=O)[C@H](C)NC(=O)[C@H](CC(C)C)NC(=O)[C@H](CCC(=O)O)NC(=O)[C@H](CO)NC(=O)[C@H](CO)NC(=O)[C@H](Cc1ccccc1)NC(=O)[C@@H](NC(=O)CNC(=O)[C@H](CCC(=O)O)NC(=O)CNC(=O)[C@@H](N)Cc1cnc[nH]1)[C@@H](C)O)[C@@H](C)O)[C@@H](C)CC)[C@@H](C)CC)C(=O)N[C@@H](C)C(=O)N[C@H](C(=O)N[C@@H](CCCCN)C(=O)N[C@H](C(=O)N[C@H](C(=O)N[C@@H](CC(=O)O)C(=O)N[C@@H](CCCCN)C(=O)N[C@@H](CCCCN)C(=O)N[C@@H](CCCCN)C(=O)N[C@@H](CCCCN)C(=O)N[C@@H](CCCCN)C(=O)N[C@@H](CCCCN)C(N)=O)[C@@H](C)O)[C@@H](C)CC)[C@@H](C)O` gave a CL/F of 1390 L/h (healthy humans, plasma; subcutaneous, 5 mg glepaglutide once weekly, 6 doses, day 36, geometric mean).
`Nc1cccc2c1C(=O)N(C1CCC(=O)NC1=O)C2=O` (stereo not drawn) has a CL/F of 7.6 L/h (healthy humans, plasma; 4 mg, alone, geometric mean).
The CL/F of `C#C[C@]1(O)CC[C@H]2[C@@H]3CCC4=CC(=O)CC[C@@H]4[C@H]3CC[C@@]21C` is reported as 28.9 L/h (human female, plasma; oral, 1 mg, day 1, together with: ethinyl estradiol 35 µg).
With `CNC(=O)c1ccc(-c2cnc3ncc(Cc4ccc5ncccc5c4)n3n2)cc1F` the CL/F was 26.8 L/h (healthy human subjects, plasma; oral, 200 mg, geometric mean, together with: itraconazole 200 mg/day).
For `CCCC[C@H](NC(C)=O)C(=O)N[C@H]1CCC(=O)NC[C@@H](C(=O)N[C@@H](Cc2c[nH]c3ccccc23)C(N)=O)NC(=O)[C@H](CCCNC(=N)N)NC(=O)[C@@H](Cc2ccccc2)NC(=O)[C@H](Cc2c[nH]cn2)NC1=O`, the CL/F was 20.1 L/h (healthy human, both sexes, plasma; subcutaneous, 1.0 mg once daily, day 1, arithmetic mean).
`CCOc1cc([C@@H](CS(C)(=O)=O)N2C(=O)c3cccc(NC(C)=O)c3C2=O)ccc1OC` has a CL/F of 10.5 L/h (healthy human; oral, 30 mg single dose, together with: rifampicin 600 mg i.v. infusion over 30 min).
For `CN1CC[C@@H](NC(=O)Nc2ccc(C#N)cc2)C[C@@H]1c1nc2ccccc2[nH]1`, the CL/F was 6.27 L/h (population PK model; human cancer patients; oral, 5 to 640 mg once daily, sample A kg haematologic patient, 38.2% BMB, no sample B inhibitor).
`COc1cc2ncnc(Nc3ccc(F)c(Cl)c3)c2cc1NC(=O)/C=C/CN1CCCCC1` has a CL/F of 42.6 L/h (human, normal hepatic function; oral, 30 mg single, geometric mean).
For `Cc1nc2cccc(N)c2c(=O)n1C1CCC(=O)NC1=O` (stereo not drawn), the CL/F was 6.51 L/h (healthy adult human; oral, 3 mg, geometric mean, together with: rifampin 600 mg once daily).
With `CC(C)c1nc(CN(C)C(=O)N[C@H](C(=O)N[C@@H](Cc2ccccc2)C[C@H](O)[C@H](Cc2ccccc2)NC(=O)OCc2cncs2)C(C)C)cs1` the CL/F was 3.17 mL/min/kg (human, HIV+/HCV−, plasma; oral, total drug, steady state, median, together with: lopinavir/ritonavir twice daily).
The CL/F of `O[C@H](C[C@H]1c2c(F)cccc2-c2cncn21)[C@H]1CC[C@H](O)CC1` is reported as 124 L/h (human; oral, 200 mg [14C]).
`CCc1cc(/C(C)=N/OCc2ccc(C3CCCCC3)c(C(F)(F)F)c2)ccc1CN1CC(C(=O)O)C1` gave a CL/F of 1.7 L/h (healthy human CYP2C9*2/*3; 0.25 mg single dose, geometric mean).
The CL/F of `CC[C@H](C)[C@@H]1NC(=O)[C@H](CCCNC(=N)N)NC(=O)[C@H](CC(=O)O)NC(=O)[C@H](CC(C)C)NC(=O)[C@H](CCCCN)NC(=O)[C@H](CC(C)C)NC(=O)CNC(=O)[C@H](Cc2ccccc2)NC(=O)[C@@H](NC(=O)CNC(=O)[C@H](CCCCN)NC(=O)[C@H](CO)NC(=O)[C@H](CC(C)C)NC(=O)CNC(=O)[C@H](CCCCN)NC(=O)[C@H](CCCCN)NC(=O)[C@H](CC(N)=O)NC(=O)[C@H](C)NC(=O)CNC(=O)[C@H](CCCCN)NC(=O)[C@H](Cc2ccc(O)cc2)NC(=O)[C@H](CCCCN)NC(=O)[C@H](CCCNC(=N)N)NC(=O)[C@H](C)NC(=O)[C@H](CC(N)=O)NC(=O)[C@@H]2CCCN2C(=O)[C@H](Cc2c[nH]cn2)NC(=O)[C@H](CCC(=O)O)NC(=O)[C@H](CCC(N)=O)NC(=O)CNC(=O)[C@@H]2CCCN2)CSSC[C@@H](C(=O)O)NC(=O)CNC(=O)[C@H](CC(C)C)NC(=O)CNC(=O)[C@H](CO)NC(=O)[C@H](CCSC)NC(=O)[C@H](CO)NC(=O)CNC1=O` is reported as 79.4 mL/min/kg (human, plasma; subcutaneous, 15 µg/kg once daily, week 52).
